Results pooled from the literature.
± gives the spread as reported.
Cell line: WI-38

SMILES | effect on | technique | time | IC50
O=C(/C=C/c1ccc(O)cc1)OCCCC[P+](c1ccccc1)(c1ccccc1)c1ccccc1 | cell growth or viability | SRB | 24 h | 270 µM
CN1CCC2(CC1)C/C(=N\NC(=O)Nc1ccc(Cl)cc1)c1ccccc1O2 | cell growth or viability | – | – | 100 µM
O=C(CCl)Sc1nnc(-c2n[nH]c(=O)c3ccccc23)o1 | cell growth or viability | MTT | 48 h | 72.4 µM
CCN1CCC2(CC1)C/C(=N\NC(=O)Nc1ccc(Cl)cc1)c1ccccc1O2 | cell growth or viability | – | – | 100 µM
O=C(/C=C/c1ccc(O)c(O)c1)OCCCC[P+](c1ccccc1)(c1ccccc1)c1ccccc1 | cell growth or viability | SRB | 24 h | 124 µM
O=C(Cn1cc(/C=C/C(=O)c2ccccc2)nn1)Nc1nc(-c2ccccc2)cs1 | cell growth or viability | MTT | 72 h | 1.61 µM
CN1CCC2(CC1)C/C(=N\NC(=O)Nc1ccc([N+](=O)[O-])cc1)c1ccccc1O2 | cell growth or viability | – | – | 67.2 µM
Cc1cc(N2CCN(C(=O)CN3CCN(C)CC3)CC2)n2ncnc2n1 | cell growth or viability | – | – | > 100 µM
Cc1nn(-c2ccc(S(=O)(=O)N[C@H](CO)CC(C)C)cc2)c2nn3nnnc3nc12 | cell growth or viability | MTT | 72 h | 1.21 µM
COc1cc(/C=C/C(=O)OCCCC[P+](c2ccccc2)(c2ccccc2)c2ccccc2)ccc1O | cell growth or viability | SRB | 48 h | 53.5 µM
COc1ccc(NC(=O)N/N=C2\CC3(CCN(C)CC3)Oc3ccccc32)cc1 | cell growth or viability | – | – | 72.9 µM
N=C(N)Nc1nc2ccccc2o1 | cell growth or viability | MTT | 24 h | > 500 µM
O=C(/C=C/c1ccccc1)OCCCC[P+](c1ccccc1)(c1ccccc1)c1ccccc1 | cell growth or viability | SRB | 24 h | 126 µM
Cc1cc(N2CCN(C(=O)CN3CCCCC3)CC2)n2ncnc2n1 | cell growth or viability | – | – | 36.5 µM
CC1=NNC(c2cn(CC(=O)Nc3nc(-c4ccccc4)cs3)nn2)C1 (centres unmarked) | cell growth or viability | MTT | 72 h | 0.384 µM
Cc1c(C(=O)NNC(=S)Nc2ccc(Cl)cc2)nnn1Cc1nc2ccccc2[nH]1 | cell viability | – | – | 37.2 ± 2.4 µM
CCN1CCC2(CC1)C/C(=N\NC(=O)Nc1ccc(C)cc1)c1ccccc1O2 | cell growth or viability | – | – | 100 µM
N=C(N)Nc1nc2ccccc2s1 | cell growth or viability | MTT | 24 h | > 500 µM
CN1CCC2(CC1)C/C(=N\NC(=O)Nc1ccccc1)c1ccccc1O2 | cell growth or viability | – | – | 49.6 µM
CSC(=S)N/N=C(\C)c1ccc(S(=O)(=O)N2CCC(C)CC2)cc1 | cell growth or viability | – | – | 86.3 µM

Excerpt of the above:
SMILES | effect on | technique | time | IC50
CC1=NNC(c2cn(CC(=O)Nc3nc(-c4ccccc4)cs3)nn2)C1 (centres unmarked) | cell growth or viability | MTT | 72 h | 0.384 µM
Cc1c(C(=O)NNC(=S)Nc2ccc(Cl)cc2)nnn1Cc1nc2ccccc2[nH]1 | cell viability | – | – | 37.2 ± 2.4 µM
